Experimental data of several laboratories.
Each numbered part is a random draw from the data of one study; scales do not carry over between parts. Changes are numbered by the printed parent chain.

Set 1
Target: RNA binding protein fox-1 homolog 2, RRM domain, GST-SBP tag (RBFOX2, Homo sapiens, UniProt O43251-10, residues 100-194)
Technique: RNA Bind-n-Seq
Form: RNA
Matrix: in vitro
Concentration: 365 nM
Notes: natural RNA segment, single round, ends assumed
Reference: no-protein control
Reading: higher = stronger binding
Shared flanks, not repeated: GGGAGUUCUACAGUCCGACGAUC … UGGAAUUCUCGGGUGCCAA
Target sequence (chain): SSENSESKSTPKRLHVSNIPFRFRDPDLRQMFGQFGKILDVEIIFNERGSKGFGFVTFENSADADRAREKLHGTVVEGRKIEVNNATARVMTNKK
`GGAAGCUUGGGUUCAAGCGUCACUCAUCUGUACAUAGUUGUAACUCCCAUGUGGAGUAUCAGUCGCUCACAGGACUUGGAUCUGAAGCACAGUAAACGCAAGAGGGGAUU` — result for “RBNS enrichment (R)”: 0.505.
For `UUAUUUUGAAAUCAUGUAAAAUAAGAUAUUAGACUGUUUUUUGAAUAAAAUAUUUUUAUUGAUUGAACCUUUGACCCUCUAUCUUAUUACAUUUAGAGGCCUGGCAUCUU`, “RBNS enrichment (R)” read 1.2.
Under “RBNS enrichment (R)”, `GCAGUCAGCCCCUUCAAGUCUGGACAGCCCUGGAGUUCUGGUCCCCUCUCCUAGCACUGUACCUUUACCCAGCGAGUCCCCACACUGUGGUCUUCUUGCACAGUGUGUGG` is recorded as 0.418.
`UGCCCCCUCUCCUCCUUGGCACUGGCGGCCUCCUUGCCUCCCUUCCACCCGUGCUGCCAUCCCGUGCCUGUCGUGUUGGUUCUUCACACGUGCUCUGUUCUCGGGGUUGU`: “RBNS enrichment (R)” 0.509.
Under “RBNS enrichment (R)”, `AGAAAAGUAAUUUAUUCUGUCAAGAAAUAAAAAAAUAGGCUUUGUGUAUGGUUAAACUGUAAAUCUUAUGUUUACAAAAUACUGUAAUUUUCAGGAAAUCACUGUAUUAG` is recorded as 0.461.
`GGGCAAGUGAACUCAGCACUCUGCAGUGAGAGGGACAGUCCCAUGUGUGGCAGCAUUGUCCCACUUCAGAUGCCAGGAGUGGGCUCAUCCUAGAGGAGCGGAGUUUUCCG` — result for “RBNS enrichment (R)”: 0.212.
Under “RBNS enrichment (R)”, `CUGGGUGGAAACUGCUUUGCACUAUCGUUUGCUUGGUGUUUGUUUUUAACGCACAACUUGCUUGUACAGUAAACUGUCUUCUGUACUAUUUAACUGUAAAAUGGAAUUUU` is recorded as 0.732.
For `CAAGAAAUCCACAUUUGUGCUGCAGAUACUGGAAACCAAACUGCAGCUGCAGCCAUUGGAAGAAACCUGUUACCUGAAUGCGAUUUCCUCCAUUUUCUCAACAGCUGGAG`, “RBNS enrichment (R)” read 0.314.
Under “RBNS enrichment (R)”, `UUUUUUGGGUAUGUCUGGAUCAUUCAGACAGUACAUUUGAAUUCCGCUGAAUGUAGAUAAAUAAAAGAAAAACAAAAGAAUGCCUGUCUCAGGCCUGGGUGUCUGACCCC` is recorded as 0.729.
`AAUGAGCUAACCUCAGAGAGAAGCCCUGGAGUCUAAGAUUGUUGUAAAAAUUAAUUUAUUUGUGUUAUCUUGUAUUGACAAAUAAAAAUCUUUACUACUUUCUCAAGCCC` — result for “RBNS enrichment (R)”: 0.27.
For `CUGUCUUCCUCAUUGCACUGCAAUGGGCAGGGGUAGGAGAUUGGAGAUAAGGAUGAAGGGGGAGGAAAGGGUCCCUGGAGGCCUGUGCAUCUAUGCUCUGUUACAAGUGC`, “RBNS enrichment (R)” read 0.584.
For `GCUCGUCCUUUUCCAGGACACAAUGGAACUGUCGGAAGAAGAGUUUCUAGAAAGUUAGGAUUGGGCAGAUAGUUGAGUCCUAAUCUAUCAAAUCAUUGUUGCCUCUCAUA`, “RBNS enrichment (R)” read 0.401.

Set 2
Target: Histone acetyltransferase KAT6A, winged helix 1, GST fusion (KAT6A, Homo sapiens, UniProt Q92794, residues 1-85)
Technique: protein binding microarray
Form: double-stranded DNA, one strand shown
Matrix: in vitro
Concentration: not given
Notes: 8-mer, flanks averaged, mean of 2 arrays, mostly near background
Reference: not given
Reading: higher = stronger binding
Target sequence (chain): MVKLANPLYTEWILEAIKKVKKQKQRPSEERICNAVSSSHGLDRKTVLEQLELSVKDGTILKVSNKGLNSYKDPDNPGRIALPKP
With `AAAGTGAC` the E-score was -0.0575.
With `GTGCGGCA` the E-score was 0.272.
`AAAATGTT` has an E-score of -0.127.
With `CATTAGTC` the E-score was -0.0828.
For `GGCTCGTA`, the E-score was 0.0464.
`ATAGGACA` gave an E-score of -0.136.
The E-score of `CACAGTCA` is reported as -0.264.
For `ACAAGAGG`, the E-score was -0.0247.
The E-score of `AGAACGAG` is reported as -0.152.
`CATCTGCC` has an E-score of 0.0984.
With `TATACTAA` the E-score was -0.239.
With `GAGTAGAC` the E-score was -0.00301.
With `AGCGTCTA` the E-score was -0.0105.
`CGACAGTC` has an E-score of -0.105.
`CGGGCTTA` has an E-score of 0.22.
With `CACCCAGA` the E-score was -0.228.
With `ACACGGCC` the E-score was 0.337.
`GAGGGTCC` has an E-score of -0.131.
`CCCTTCCG` gave an E-score of 0.18.
`TAAGACAA` gave an E-score of 0.0798.
For `ACAGCCAC`, the E-score was -0.15.
With `AAGTCGGG` the E-score was 0.114.

Set 3
Target: CCNF, cyclin fold, Cln2 fusion (human)
Technique: yeast growth competition, sequencing
Matrix: yeast
Notes: strong parent motif
Reference: not given
Reading: higher = stronger binding
Starting sequence: E2F1 docking peptide (human); PPVKRRLDLETDH
Under “normalised enrichment score”, `PPVKRRLELETDH [D8E]` is recorded as 5.36.
`IPVKRRLDLETDH [P1I]`: “normalised enrichment score” 5.75.
`PPVERRLDLETDH [K4E]`: “normalised enrichment score” 1.61.
`PPVKRRPDLETDH [L7P]` — result for “normalised enrichment score”: 0.0223.
For `PPVKRRLDLLTDH [E10L]`, “normalised enrichment score” read 5.98.
Under “normalised enrichment score”, `PPVIRRLDLETDH [K4I]` is recorded as 4.86.
For `PPVKRRQDLETDH [L7Q]`, “normalised enrichment score” read 1.04.
`KPVKRRLDLETDH [P1K]`: “normalised enrichment score” 6.94.
`PPVKRRLFLETDH [D8F]` — result for “normalised enrichment score”: 9.
`PPLKRRLDLETDH [V3L]`: “normalised enrichment score” 1.42.
For `PPVKARADLETDH [R5A L7A]`, “normalised enrichment score” read -0.238.
`PPVKDRLDLETDH [R5D]`: “normalised enrichment score” -0.605.
`PPVKRRLDLETDT [H13T]` — result for “normalised enrichment score”: 8.44.
For `PPVKRYLDLETDH [R6Y]`, “normalised enrichment score” read 3.71.
`PPVKRRLDLETDI [H13I]`: “normalised enrichment score” 7.34.
`PPDKRRLDLETDH [V3D]` — result for “normalised enrichment score”: 0.607.
Under “normalised enrichment score”, `PPVKRRWDLETDH [L7W]` is recorded as 0.578.
`PPWKRRLDLETDH [V3W]`: “normalised enrichment score” 2.87.
For `PPVKRDLDLETDH [R6D]`, “normalised enrichment score” read -0.954.
Under “normalised enrichment score”, `PPVKRRLDLETDF [H13F]` is recorded as 8.25.
For `PPVKRRLALETDH [D8A]`, “normalised enrichment score” read 5.79.
Under “normalised enrichment score”, `PPVKRRLLLETDH [D8L]` is recorded as 7.01.
`PPVKRNLDLETDH [R6N]`: “normalised enrichment score” 1.39.

Set 4
Target: Prothrombin, mature alpha-thrombin (F2, Homo sapiens, UniProt P00734)
Technique: aptamer microarray, sandwich
Form: DNA with 2'F-ANA
Matrix: in vitro
Concentration: 200 nM
Notes: whole 15-mer aptamer, many near background
Together with: Cy3 exosite-II aptamer, 400 nM
Reading: higher = stronger binding
Strand: GGTTGGTGTGGTTGG
`2'F-ANA at 3 6 7 8 9 11 14 15` — result for “mean fluorescence intensity”: 506 a.u.
Under “mean fluorescence intensity”, `2'F-ANA at 1 3 4 5 7 8 11 13 14 15` is recorded as 48.4 a.u.
`2'F-ANA at 1 2 4 8 10 12 14 15`: “mean fluorescence intensity” 51.5 a.u.
For `2'F-ANA at 1 2 3 4 5 7 12`, “mean fluorescence intensity” read 111 a.u.
`2'F-ANA at 2 4 5 6 7 8 9 10`: “mean fluorescence intensity” 49.1 a.u.
`2'F-ANA at 1 3 4 5 6 8 10 14 15`: “mean fluorescence intensity” 77.6 a.u.
`2'F-ANA at 1 3 4 8 9 10 12 13 14`: “mean fluorescence intensity” 52.6 a.u.
`2'F-ANA at 1 2 4 5 6 7 8 9 10 12 14`: “mean fluorescence intensity” 66.7 a.u.
`2'F-ANA at 1 3 6 11 13`: “mean fluorescence intensity” 223 a.u.
For `2'F-ANA at 1 2 4 5 7 9 12 14`, “mean fluorescence intensity” read 45.2 a.u.
Under “mean fluorescence intensity”, `2'F-ANA at 3 4 6 7 10 13 14` is recorded as 176 a.u.
`2'F-ANA at 1 2 3 5 9 10 11 12 14 15` — result for “mean fluorescence intensity”: 47.2 a.u.
For `2'F-ANA at 1 3 5 7 12 13`, “mean fluorescence intensity” read 86.4 a.u.
Under “mean fluorescence intensity”, `2'F-ANA at 1 3 4 5 7 10 11 12 13 14` is recorded as 51.2 a.u.
Under “mean fluorescence intensity”, `2'F-ANA at 2 3 8 9 10 11 14 15` is recorded as 266 a.u.
Under “mean fluorescence intensity”, `2'F-ANA at 2 3 4 11 12 13 14 15` is recorded as 346 a.u.
For `2'F-ANA at 2 8 9 10 11 12 14`, “mean fluorescence intensity” read 80 a.u.
`2'F-ANA at 7 9 10 11 13` — result for “mean fluorescence intensity”: 150 a.u.
`2'F-ANA at 3 5 12 13` — result for “mean fluorescence intensity”: 208 a.u.
`2'F-ANA at 4 9`: “mean fluorescence intensity” 365 a.u.
`2'F-ANA at 2 3 4 6 10 11 12 14` — result for “mean fluorescence intensity”: 174 a.u.
For `2'F-ANA at 1 3 9 11 14`, “mean fluorescence intensity” read 102 a.u.
`2'F-ANA at 1 2 3 4 6 8 10 12 13 14`: “mean fluorescence intensity” 49 a.u.

Set 5
Target: Interferon regulatory factor 3, full length, phosphomimetic (IRF3, Homo sapiens, UniProt Q14653, residues 1-427, S386D/S396D/S398D/S402D/T404D/S405D)
Technique: protein-binding microarray
Form: double-stranded DNA, one strand shown
Matrix: in vitro
Concentration: 2540 nM top
Notes: 60-bp whole probe
Together with: salmon DNA 0.4 mg/ml
Reference: random background probes
Reading: higher = stronger binding
Shared flanks, not repeated: GCCTAGCAC … GTCTTGATTCGCTTGACGCTGCTG
Construct (chain): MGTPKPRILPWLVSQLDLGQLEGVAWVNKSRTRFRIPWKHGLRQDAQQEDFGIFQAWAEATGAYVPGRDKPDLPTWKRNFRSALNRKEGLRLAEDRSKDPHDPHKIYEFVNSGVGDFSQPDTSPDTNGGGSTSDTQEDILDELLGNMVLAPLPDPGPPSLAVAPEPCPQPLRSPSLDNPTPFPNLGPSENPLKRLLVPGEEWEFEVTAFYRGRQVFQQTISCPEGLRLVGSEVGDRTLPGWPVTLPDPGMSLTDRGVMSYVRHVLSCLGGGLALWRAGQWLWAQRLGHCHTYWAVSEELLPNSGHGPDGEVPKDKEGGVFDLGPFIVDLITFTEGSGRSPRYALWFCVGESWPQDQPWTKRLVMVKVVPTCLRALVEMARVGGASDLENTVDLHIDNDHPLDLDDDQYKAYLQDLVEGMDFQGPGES
For `GACGGTATCGGGTATAGGGACGTGCTA`, “fitted relative affinity” read 1.42 z-score.
For `CCAAGTCTTGTTTTACAATTGTGCTAG`, “fitted relative affinity” read 0.91 z-score.
Under “fitted relative affinity”, `TTAGATCCCAGTATCGATTAGTGCTAG` is recorded as 1.32 z-score.
For `AGATTTTTATCAAATGTGGGAGTGCTA`, “fitted relative affinity” read -0.012 z-score.
`GACGAAATCGGGTATCGAGACGTGCTA`: “fitted relative affinity” 0.231 z-score.
Under “fitted relative affinity”, `TTAGATATCAGTTGCGATTAGTGCTAG` is recorded as 1.04 z-score.
Under “fitted relative affinity”, `GACGGTTCGGGTTTCGGGACGTGCTAG` is recorded as 2.2 z-score.
`TACGGTTTCGACACTGGGGACGTGCTA` — result for “fitted relative affinity”: 2.8 z-score.
For `CCCACCCTCAGGGAGCCTGTGTGCTAG`, “fitted relative affinity” read -0.106 z-score.
For `CCCCCAGGATTCAATTACCAGTGCTAG`, “fitted relative affinity” read 0.253 z-score.
`TTAGAACTGTGTTTCGATTAGTGCTAG` — result for “fitted relative affinity”: 1.98 z-score.
Under “fitted relative affinity”, `GACGGACTGTGGTTTCGGGACGTGCTA` is recorded as 1.66 z-score.
For `TTAGTTATCAGACTGGATTAGTGCTAG`, “fitted relative affinity” read 0.603 z-score.
`TTAGATCTCAGTATCCATTAGTGCTAG` — result for “fitted relative affinity”: 1.54 z-score.
Under “fitted relative affinity”, `GACGATCTCGGGTATCGAGACGTGCTA` is recorded as 0.132 z-score.
`AGAGTCACCCATCTCAGCAAGTGCTAG` — result for “fitted relative affinity”: 1.5 z-score.
Under “fitted relative affinity”, `TTAGGTCTCCTTATCCTTGAGTGCTAG` is recorded as 2.66 z-score.

Mixed results
`PhoQ, residues 284 288 289 292 302 303 HSYLQF` has a fold induction of 12.7 (PhoP, residues 12 14 15 18 19 AQALL (Escherichia coli, UniProt P23836); Sort-seq, refers to: YFP reporter; E. coli; PhoQ-PhoP variant library, together with: 10 µM Mg2+; reference: high Mg2+ state, higher = stronger signaling).
